Measurements collected from several papers.
Protocols differ between the studies behind these lines.
Organism: Pseudomonas aeruginosa

SMILES	assay	system	conditions	scale	MIC
CC1(C)SC2C(NC(=O)C(NC(=O)C3=C(O)C(Cc4ccccc4)NC3=O)c3ccccc3)C(=O)N2C1C(=O)O (centres unmarked)		fpvB mutant			12.5 µg/mL
CC[C@H](C)[C@H](NC(=O)CNC(=O)[C@H](CC(=O)O)NC(=O)[C@H](CCCNC(=N)N)NC(=O)[C@@H](NC(=O)[C@H](CC(N)=O)NC(=O)[C@H](CCCNC(=N)N)NC(=O)CNC(=O)[C@@H](NC(=O)[C@H](CCCCN)NC(=O)[C@H](CCC(=O)O)NC(=O)[C@@H](NC(=O)[C@H](CCCCN)NC(=O)[C@H](CCCCN)NC(=O)[C@H](Cc1ccccc1)NC(=O)[C@@H](NC(=O)[C@H](CCCCN)NC(=O)[C@H](Cc1c[nH]c2ccccc12)NC(=O)[C@@H](N)CCCNC(=N)N)[C@@H](C)CC)[C@@H](C)CC)C(C)C)C(C)C)C(=O)N[C@H](C(=O)N[C@@H](CCCCN)C(=O)N[C@@H](C)C(N)=O)[C@@H](C)CC		KCCM 11328, Mueller-Hinton broth	16 h, 37 °C	growth inhibition over 99%	32 µM
C[C@H]1COc2c(N3CCN(C)CC3)c(F)cc3c(=O)c(C(=O)O)cn1c23		1191191, multidrug-resistant			2 µg/mL
CC(C)(C)OCC1NC(=O)C(C(=O)NC(C(=O)NC2C(=O)N3C2SC(C)(C)C3C(=O)O)c2ccccc2)=C1O (centres unmarked)	broth microdilution	TonB-dependent receptor mutant	PA two-allele library		25 µg/mL
CC[C@H](C)[C@H](NC(=O)[C@H](CC(C)C)NC(=O)[C@H](CCCCN)NC(=O)[C@@H](NC(=O)[C@H](C)NC(=O)[C@H](CCC(=O)O)NC(=O)[C@H](Cc1c[nH]cn1)NC(=O)[C@@H](NC(=O)[C@H](CCCCN)NC(=O)[C@H](CCC(N)=O)NC(=O)[C@H](Cc1ccccc1)NC(=O)[C@@H](NC(=O)[C@H](CCCCN)NC(=O)[C@H](CCCCN)NC(=O)[C@H](CC(C)C)NC(=O)[C@H](C)N)C(C)C)[C@@H](C)CC)[C@@H](C)CC)C(N)=O	CLSI broth microdilution	ATCC 27853	18 h, 37 °C		8 µM
CC[C@H](C)[C@H](N)C(=O)N[C@@H](CC(C)C)C(=O)NCC(=O)N[C@H](CCCNC(=N)N)C(=O)N[C@H](C(=O)N[C@@H](Cc1c[nH]c2ccccc12)C(=O)N[C@@H](CCCCN)C(=O)NCC(=O)N[C@H](C(=O)N[C@@H](CCCCN)C(=O)N[C@@H](CC(=O)O)C(=O)N[C@H](C(=O)N[C@@H](CC(C)C)C(N)=O)[C@@H](C)CC)[C@@H](C)CC)[C@@H](C)CC	broth microdilution	ATCC BAA-427, Mueller-Hinton broth	16 h, 37 °C		25 µM
CC1(C)S[C@@H]2[C@H](NC(=O)C(C(=O)O)c3ccccc3)C(=O)N2[C@H]1C(=O)O (some centres unmarked)		fpvA mutant			25 µg/mL
CC[C@@H](C)[C@@H](NC(=O)[C@@H](CC(C)C)NC(=O)[C@H](NC(=O)[C@H](NC(=O)[C@H](NC(=O)[C@@H](CCCNC(=N)N)NC(=O)[C@@H](CCCNC(=N)N)NC(=O)[C@@H](CCCNC(=N)N)NC(=O)[C@H](N)CCCNC(=N)N)C(C)C)[C@H](C)CC)[C@H](C)CC)C(=O)N[C@@H](C(=O)N[C@H](CC(C)C)C(=O)N[C@H](CCCNC(=N)N)C(=O)N[C@H](CCCNC(=N)N)C(=O)N[C@H](CCCNC(=N)N)C(=O)N[C@H](CCCNC(=N)N)C(=O)N[C@H](Cc1ccccc1)C(=O)N[C@H](CO)C(=O)N[C@H](C)C(=O)N[C@H](Cc1ccc(O)cc1)C(N)=O)C(C)C	broth microdilution	ATCC 27853	highest value reported		8 µM
C[C@@H](O)[C@H]1C(=O)N2C(C(=O)O)=C(S[C@@H]3CN[C@H](C(=O)N(C)C)C3)[C@H](C)[C@H]12	broth microdilution		multidrug-resistant clinical isolate		0.5 µg/mL
CC[C@H](C)[C@H](NC(=O)[C@H](Cc1ccccc1)NC(=O)[C@@H](NC(=O)[C@H](Cc1ccccc1)NC(=O)[C@@H]1CCCN1C(=O)[C@@H](NC(=O)[C@H](C)N)[C@@H](C)CC)[C@@H](C)CC)C(=O)N[C@@H](Cc1c[nH]c2ccccc12)C(=O)N[C@@H](CCCNC(=N)N)C(=O)N[C@@H](CC(C)C)C(=O)N[C@@H](CC(C)C)C(=O)N[C@@H](CCCNC(=N)N)C(=O)N[C@@H](CCCCN)C(=O)NCC(N)=O	broth microdilution	PAO1	18 h, 37 °C		15 µM
CC[C@H](C)[C@H](NC(=O)CNC(=O)[C@H](CC(=O)O)NC(=O)[C@H](CCCNC(=N)N)NC(=O)[C@@H](NC(=O)[C@H](CC(N)=O)NC(=O)[C@H](C)NC(=O)CNC(=O)[C@@H](NC(=O)[C@H](CCCCN)NC(=O)[C@H](CCC(=O)O)NC(=O)[C@@H](NC(=O)[C@H](CCCCN)NC(=O)[C@H](CCCCN)NC(=O)[C@H](Cc1ccccc1)NC(=O)[C@@H](NC(=O)[C@H](CCCCN)NC(=O)[C@H](Cc1c[nH]c2ccccc12)NC(=O)[C@@H](N)CCCNC(=N)N)[C@@H](C)CC)[C@@H](C)CC)C(C)C)C(C)C)C(=O)N[C@H](C(=O)N[C@@H](CCCCN)C(=O)N[C@@H](C)C(=O)NCC(=O)N1CCC[C@H]1C(=O)N[C@@H](C)C(=O)N[C@H](C(=O)N[C@@H](C)C(=O)N[C@H](C(=O)N[C@H](C(=O)NCC(=O)N[C@@H](CCC(N)=O)C(=O)N[C@@H](C)C(=O)N[C@@H](C)C(=O)N[C@H](C(=O)N[C@H](C(=O)N[C@H](C(=O)N[C@@H](CCCCN)C(N)=O)C(C)C)C(C)C)[C@@H](C)O)C(C)C)C(C)C)C(C)C)[C@@H](C)CC		KCCM 11328, Mueller-Hinton broth	16 h, 37 °C	growth inhibition over 99%	16 µM
CC(C)C1NC(=O)C(C(=O)NC(C(=O)NC2C(=O)N3C2SC(C)(C)C3C(=O)O)c2ccccc2)=C1O (centres unmarked)		pqsE mutant			100 µg/mL
CC(C)C[C@H](NC(=O)[C@H](CCCCN)NC(=O)[C@H](CC(C)C)NC(=O)[C@H](CCCCN)NC(=O)[C@H](CC(C)C)NC(=O)[C@H](CCCCN)NC(=O)CNC(=O)[C@H]1CCCN1C(=O)[C@H](CCCCN)NC(=O)[C@H](CC(C)C)NC(=O)[C@H](CCCCN)NC(=O)[C@H](CC(C)C)NC(=O)[C@H](CCCCN)NC(=O)[C@@H](N)CC(C)C)C(N)=O	broth microdilution	ATCC 9027, Mueller-Hinton broth	18 h, 37 °C		4 µM
CC[C@H](C)[C@H](NC(=O)[C@H](CC(C)C)NC(=O)[C@H](CCCNC(=N)N)NC(=O)[C@@H](N)CCCNC(=N)N)C(=O)N[C@@H](CCCNC(=N)N)C(=O)N[C@H](C(=O)N[C@@H](CCCCN)C(=O)N[C@H](C(=O)NCC(=O)N1CCC[C@H]1C(=O)N[C@H](C(=O)N[C@H](C(=O)N[C@@H](Cc1ccc(O)cc1)C(=O)N[C@@H](CCCCN)C(=O)N[C@@H](Cc1ccc(O)cc1)C(=O)N[C@@H](Cc1ccccc1)C(=O)N[C@@H](CCCCN)C(=O)N[C@@H](CCCCN)C(=O)N[C@@H](CCC(N)=O)C(=O)N[C@@H](CC(C)C)C(=O)N[C@@H](CC(C)C)C(=O)N[C@@H](CCCCN)C(=O)N[C@@H](CCCCN)C(N)=O)[C@@H](C)CC)[C@@H](C)CC)[C@@H](C)O)[C@@H](C)O		KCTC 1637, Mueller-Hinton broth	24 h		4 µM

Some of these lines once more:
SMILES	assay	system	conditions	scale	MIC
CC[C@H](C)[C@H](NC(=O)CNC(=O)[C@H](CC(=O)O)NC(=O)[C@H](CCCNC(=N)N)NC(=O)[C@@H](NC(=O)[C@H](CC(N)=O)NC(=O)[C@H](C)NC(=O)CNC(=O)[C@@H](NC(=O)[C@H](CCCCN)NC(=O)[C@H](CCC(=O)O)NC(=O)[C@@H](NC(=O)[C@H](CCCCN)NC(=O)[C@H](CCCCN)NC(=O)[C@H](Cc1ccccc1)NC(=O)[C@@H](NC(=O)[C@H](CCCCN)NC(=O)[C@H](Cc1c[nH]c2ccccc12)NC(=O)[C@@H](N)CCCNC(=N)N)[C@@H](C)CC)[C@@H](C)CC)C(C)C)C(C)C)C(=O)N[C@H](C(=O)N[C@@H](CCCCN)C(=O)N[C@@H](C)C(=O)NCC(=O)N1CCC[C@H]1C(=O)N[C@@H](C)C(=O)N[C@H](C(=O)N[C@@H](C)C(=O)N[C@H](C(=O)N[C@H](C(=O)NCC(=O)N[C@@H](CCC(N)=O)C(=O)N[C@@H](C)C(=O)N[C@@H](C)C(=O)N[C@H](C(=O)N[C@H](C(=O)N[C@H](C(=O)N[C@@H](CCCCN)C(N)=O)C(C)C)C(C)C)[C@@H](C)O)C(C)C)C(C)C)C(C)C)[C@@H](C)CC		KCCM 11328, Mueller-Hinton broth	16 h, 37 °C	growth inhibition over 99%	16 µM
